Measured values of several laboratories.
Numbered parts are unrelated; each lists some results of a single study. Changes are numbered by the printed parent chain.

Study 1
Target: CEBPA, bZIP domain (human)
Technique: DHFR protein complementation
Medium: yeast
Notes: single substitutions, most at no-binding floor
Relative to: wild-type JUN-FOS pair
Reading: higher = stronger binding
Starting sequence: JUN, bZIP domain (human); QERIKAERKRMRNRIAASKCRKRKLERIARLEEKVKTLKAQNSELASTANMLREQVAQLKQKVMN; partner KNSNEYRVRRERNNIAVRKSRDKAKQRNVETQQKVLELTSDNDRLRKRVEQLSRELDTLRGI
Change | binding fitness [natural log]
E44C | -1.48
Q41M | -1.51
A29W | -1.51
K34P | -1.51
E44Y | -1.54
L52Y | -1.42
A40P | -1.55
A57Y | -1.4

Study 2
Target: Hepatocyte nuclear factor 3-alpha (Foxa1, Mus musculus, UniProt P35582, residues 1-468, full length assumed)
Technique: EMSA with sequencing
Form: double-stranded DNA, one strand shown
Medium: in vitro
Tested at: 10 and 20 nM
Notes: whole designed probe, mean of two concentrations, ends assumed
Relative to: negative control set to 0
Reading: higher = stronger binding
Target sequence (chain): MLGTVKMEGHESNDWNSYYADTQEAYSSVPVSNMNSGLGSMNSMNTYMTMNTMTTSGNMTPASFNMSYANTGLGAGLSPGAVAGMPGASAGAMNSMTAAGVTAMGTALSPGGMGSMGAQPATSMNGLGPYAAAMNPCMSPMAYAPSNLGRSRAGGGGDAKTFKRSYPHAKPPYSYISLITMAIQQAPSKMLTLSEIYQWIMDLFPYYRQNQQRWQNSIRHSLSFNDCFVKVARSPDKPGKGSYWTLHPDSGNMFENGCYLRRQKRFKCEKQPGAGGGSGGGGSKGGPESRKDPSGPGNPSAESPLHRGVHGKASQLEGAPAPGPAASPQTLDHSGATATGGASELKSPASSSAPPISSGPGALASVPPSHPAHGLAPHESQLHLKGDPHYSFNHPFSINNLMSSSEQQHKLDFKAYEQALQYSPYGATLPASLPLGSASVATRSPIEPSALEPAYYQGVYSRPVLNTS
Sequence | normalised bound fraction [ratio]
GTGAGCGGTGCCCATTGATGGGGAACATGAAGGGCTGCCAGTGTAATTTGAACCTCAAATAAACAACAGATAAAACTGTAGTATAAGTATGTCATTGCACAACCCATATACGATCTTTTTGTTTGCCTAATCTGGCAAAGATATTGACTTAACACACACTAATCTGTTGACAGGTAGGTGAAATATTTGAACTTCTACGTTGCTTCTCTAATCCTGTCCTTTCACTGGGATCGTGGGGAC | 0.389
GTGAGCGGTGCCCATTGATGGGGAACGAAAAACTGTTAGGCCTCTACCACATGCAAGGAACTGTGCCAAGAATCAAGAGCGATAAAGACTCGTGGGTATTTGCTTGTCTGTGTTTCAAGTGTTTACACAGGGCCTGTATTTCCTGTAAGTCTCCGTCTCAGAACGTGTCAGAGAAGAATGGCTGAATGATATGCAGGAAACGTGCCATATGAACAGAGTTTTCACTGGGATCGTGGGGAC | 0.403
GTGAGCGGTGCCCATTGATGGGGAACCTCATCTTAGATAGTAGAATCGCAGCATTTTTTTCTGCCGGTCTGAACTCAGGCACGCTATTTGTTCATCTACTTACTCAAACATGTATTGTGTGTTTACTCAGTGGCAGGCTCTGTCCTAGGTGCTGGGGATGGAGCAGTGCAGAGAGACAAAAACTCTGCTCTCATAAAGCTCACAATCTACAACCTGAGATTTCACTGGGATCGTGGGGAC | 0.456
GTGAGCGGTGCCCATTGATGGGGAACCATTTTTCTATGAAGTTATAGTCACTTTCACATTTACTGCAAGATGTTTTTCGGATCTCTCCACTGCCGCCTTGTGGCTTTAGAACACAAATCTGTTTACTTTGTTTTGTGACATATTTGAATAAAACCATGTATCCTGTTTAGGGCTGGCAATGTGGTAGTGGGAGGGTTGGAAATTGGATACAAAAATTGATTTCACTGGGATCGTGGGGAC | 0.336
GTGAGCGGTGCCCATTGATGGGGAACAAGATATGATTATTATACGTGTGTCTGTTTTTATATAGAATTTGTTAGAAGTCTCTAGTACACCATACCAGAAAAAGTTTAGCTAAAACAAAGTAAACATGAAATATTGCAAAGAAAACCAATAGAAACTTAACAGAATAAATAATATTTATTTTCCAGAATAAAGACACAATATAAGTGAAGCTTCAAATTTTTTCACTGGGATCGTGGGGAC | 0.389
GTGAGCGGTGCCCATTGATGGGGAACATCTTCCCCCTCTTCCTTGCCCCACCAGCTCACCTTCCCGGGTTATTTGCAGATAGGAAAATAAATAAAGCCGGCATTCGTTAACCCTCTTCTGGCGCAAACTGCTGTTTGCTCTGGTCCTTTGGCGACGCCGATGAATCATGAGGCTCCGGGAGAGCAAAGCACCGTGTCAGGGCCATGATCCGGGGTGGCCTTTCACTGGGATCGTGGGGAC | 0.408
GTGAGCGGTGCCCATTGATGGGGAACCAATAAAACATTAAAAGATGCTGTTTCCCTATTTATGAAAGTGCTTTAAGTTTCTTAGTGTTGTGAAGGGATTTTTTTTTTTTTCGGACAAAGTAATCTGGGTTCTCAAGATCCATTTCTAAAATTTTATTTCAAGGAGGAGATGAGAAATGTATGCTTAAAGAAACTGCTGGACACTATTAAAACTGGGATGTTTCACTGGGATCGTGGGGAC | -0.0373
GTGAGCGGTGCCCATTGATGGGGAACCATCACAGCCTATCCCTGACTGAATTAGTAAATGCATTTTCCATATGAATTTACAACTTATGTAGTAATTATCACATTTGCCAATGTTTGTCCTTGTTTACACATGAATGTTAGCTAAAACACTTTCGATTATTGCCAACATTAACCCATTAAAGATGTATTTGATTCTCAACAGTCAAAATAGAATTTGAGTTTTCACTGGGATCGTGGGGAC | 0.346

Study 3
Target: Sal-like protein 4, full length isoform A (SALL4, Homo sapiens, UniProt Q9UJQ4, residues 1-1053)
Sequence of UniProt Q9UJQ4 (whole entry, looked up): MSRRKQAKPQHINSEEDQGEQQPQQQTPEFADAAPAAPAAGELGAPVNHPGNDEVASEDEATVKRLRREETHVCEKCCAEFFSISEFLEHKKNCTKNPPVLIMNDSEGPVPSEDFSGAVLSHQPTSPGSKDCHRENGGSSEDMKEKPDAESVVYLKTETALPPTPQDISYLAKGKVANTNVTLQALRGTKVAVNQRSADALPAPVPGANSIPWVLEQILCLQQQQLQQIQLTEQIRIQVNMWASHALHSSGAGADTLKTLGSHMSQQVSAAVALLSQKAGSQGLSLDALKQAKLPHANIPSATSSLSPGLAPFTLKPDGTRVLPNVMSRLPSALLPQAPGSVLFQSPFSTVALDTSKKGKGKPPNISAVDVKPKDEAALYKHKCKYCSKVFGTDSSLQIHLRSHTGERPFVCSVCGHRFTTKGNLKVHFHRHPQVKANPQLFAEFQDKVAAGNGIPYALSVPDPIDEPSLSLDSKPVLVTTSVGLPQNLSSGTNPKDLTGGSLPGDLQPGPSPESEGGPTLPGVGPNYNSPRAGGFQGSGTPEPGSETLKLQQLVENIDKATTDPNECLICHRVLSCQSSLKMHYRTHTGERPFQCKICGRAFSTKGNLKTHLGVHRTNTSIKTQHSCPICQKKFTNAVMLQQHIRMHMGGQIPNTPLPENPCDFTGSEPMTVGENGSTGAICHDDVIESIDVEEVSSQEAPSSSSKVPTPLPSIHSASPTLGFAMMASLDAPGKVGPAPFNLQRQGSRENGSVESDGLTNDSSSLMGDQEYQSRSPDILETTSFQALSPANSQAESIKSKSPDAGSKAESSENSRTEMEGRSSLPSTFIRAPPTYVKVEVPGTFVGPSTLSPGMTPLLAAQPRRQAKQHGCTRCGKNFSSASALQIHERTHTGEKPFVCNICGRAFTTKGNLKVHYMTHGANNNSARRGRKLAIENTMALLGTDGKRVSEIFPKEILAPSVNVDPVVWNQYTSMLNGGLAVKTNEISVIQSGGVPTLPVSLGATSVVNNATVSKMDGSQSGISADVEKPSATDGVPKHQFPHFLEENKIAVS
Technique: universal PBM
Form: double-stranded DNA, one strand shown
Medium: in vitro
Tested at: 600 nM
Notes: 8-mer, flanks averaged, mean of replicates
Reading: higher = stronger binding
Sequence | E-score
CGGTAGTC | -0.219
CGGTGATA | 0.0888
CTAGTCTC | -0.0743
CGAGTAAG | -0.0554
CACCTGGA | -0.156
CCATGAGG | -0.238
AGAAGTAG | 0.0443
ACTTATGA | 0.33

Further values, each from its own experiment
SMILES | system | setting | endpoint | result
CCc1nnc(NCc2ccccc2F)c2cc3sc(C)cc3n12 | human, microsomes or S9 | 2 µM, 0.5 h | remaining compound | 76%
